Assay results from different studies.
Parts stem from different laboratories: compare values within a part only.
Sequence of UniProt Q13464 (whole entry, looked up): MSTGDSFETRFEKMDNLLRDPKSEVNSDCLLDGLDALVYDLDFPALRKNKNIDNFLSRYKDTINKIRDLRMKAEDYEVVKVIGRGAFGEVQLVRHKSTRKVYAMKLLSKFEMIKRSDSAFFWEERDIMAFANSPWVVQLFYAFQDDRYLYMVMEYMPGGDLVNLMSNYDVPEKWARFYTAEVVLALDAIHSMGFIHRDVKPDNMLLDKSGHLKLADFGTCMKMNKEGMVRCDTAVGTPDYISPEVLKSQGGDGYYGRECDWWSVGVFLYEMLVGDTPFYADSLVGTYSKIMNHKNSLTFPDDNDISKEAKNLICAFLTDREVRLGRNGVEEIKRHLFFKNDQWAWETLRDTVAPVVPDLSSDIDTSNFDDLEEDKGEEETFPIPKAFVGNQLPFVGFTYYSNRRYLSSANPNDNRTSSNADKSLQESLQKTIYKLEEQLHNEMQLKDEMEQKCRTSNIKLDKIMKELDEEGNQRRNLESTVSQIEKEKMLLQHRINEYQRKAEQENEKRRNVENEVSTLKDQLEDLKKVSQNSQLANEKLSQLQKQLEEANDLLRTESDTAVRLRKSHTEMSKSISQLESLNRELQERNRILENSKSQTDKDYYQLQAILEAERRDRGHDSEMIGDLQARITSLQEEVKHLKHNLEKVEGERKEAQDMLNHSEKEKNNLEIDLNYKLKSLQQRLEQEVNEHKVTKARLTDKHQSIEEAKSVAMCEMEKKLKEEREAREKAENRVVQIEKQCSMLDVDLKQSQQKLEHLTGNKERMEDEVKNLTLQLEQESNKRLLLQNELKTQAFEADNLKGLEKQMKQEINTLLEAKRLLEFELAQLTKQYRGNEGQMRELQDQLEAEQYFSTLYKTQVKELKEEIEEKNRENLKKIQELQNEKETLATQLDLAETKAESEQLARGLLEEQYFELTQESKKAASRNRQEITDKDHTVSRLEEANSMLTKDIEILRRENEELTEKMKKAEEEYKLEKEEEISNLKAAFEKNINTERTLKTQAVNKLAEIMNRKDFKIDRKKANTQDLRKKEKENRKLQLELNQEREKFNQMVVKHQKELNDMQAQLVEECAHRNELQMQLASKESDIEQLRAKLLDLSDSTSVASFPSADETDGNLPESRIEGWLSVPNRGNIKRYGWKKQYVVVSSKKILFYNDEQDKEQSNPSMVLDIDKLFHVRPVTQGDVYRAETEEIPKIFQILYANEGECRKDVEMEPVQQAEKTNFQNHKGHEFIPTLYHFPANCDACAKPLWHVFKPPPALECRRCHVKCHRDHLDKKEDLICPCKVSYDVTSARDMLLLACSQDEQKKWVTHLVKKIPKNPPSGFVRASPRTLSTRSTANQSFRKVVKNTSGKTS
Sequence of UniProt Q86UE8 (whole entry, looked up): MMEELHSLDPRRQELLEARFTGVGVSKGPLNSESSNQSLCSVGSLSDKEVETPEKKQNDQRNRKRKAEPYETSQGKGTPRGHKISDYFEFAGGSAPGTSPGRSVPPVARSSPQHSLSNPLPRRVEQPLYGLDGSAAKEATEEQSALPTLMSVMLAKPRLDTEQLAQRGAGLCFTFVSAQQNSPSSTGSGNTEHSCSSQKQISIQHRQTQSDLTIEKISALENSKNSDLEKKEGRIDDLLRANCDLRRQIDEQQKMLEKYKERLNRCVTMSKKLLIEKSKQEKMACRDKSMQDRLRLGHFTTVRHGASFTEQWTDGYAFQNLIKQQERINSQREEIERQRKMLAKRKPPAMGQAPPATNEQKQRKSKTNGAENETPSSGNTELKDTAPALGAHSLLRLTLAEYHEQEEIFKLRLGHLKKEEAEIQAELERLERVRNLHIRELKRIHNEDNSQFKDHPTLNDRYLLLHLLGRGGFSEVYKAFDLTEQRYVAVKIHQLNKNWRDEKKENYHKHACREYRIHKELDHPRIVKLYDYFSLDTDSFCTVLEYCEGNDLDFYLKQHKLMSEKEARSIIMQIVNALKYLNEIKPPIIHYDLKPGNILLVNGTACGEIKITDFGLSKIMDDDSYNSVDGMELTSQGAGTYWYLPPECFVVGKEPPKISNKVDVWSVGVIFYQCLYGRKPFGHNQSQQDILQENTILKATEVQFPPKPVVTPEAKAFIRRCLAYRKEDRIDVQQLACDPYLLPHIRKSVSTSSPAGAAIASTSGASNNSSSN
Sequence of UniProt Q16832 (whole entry, looked up): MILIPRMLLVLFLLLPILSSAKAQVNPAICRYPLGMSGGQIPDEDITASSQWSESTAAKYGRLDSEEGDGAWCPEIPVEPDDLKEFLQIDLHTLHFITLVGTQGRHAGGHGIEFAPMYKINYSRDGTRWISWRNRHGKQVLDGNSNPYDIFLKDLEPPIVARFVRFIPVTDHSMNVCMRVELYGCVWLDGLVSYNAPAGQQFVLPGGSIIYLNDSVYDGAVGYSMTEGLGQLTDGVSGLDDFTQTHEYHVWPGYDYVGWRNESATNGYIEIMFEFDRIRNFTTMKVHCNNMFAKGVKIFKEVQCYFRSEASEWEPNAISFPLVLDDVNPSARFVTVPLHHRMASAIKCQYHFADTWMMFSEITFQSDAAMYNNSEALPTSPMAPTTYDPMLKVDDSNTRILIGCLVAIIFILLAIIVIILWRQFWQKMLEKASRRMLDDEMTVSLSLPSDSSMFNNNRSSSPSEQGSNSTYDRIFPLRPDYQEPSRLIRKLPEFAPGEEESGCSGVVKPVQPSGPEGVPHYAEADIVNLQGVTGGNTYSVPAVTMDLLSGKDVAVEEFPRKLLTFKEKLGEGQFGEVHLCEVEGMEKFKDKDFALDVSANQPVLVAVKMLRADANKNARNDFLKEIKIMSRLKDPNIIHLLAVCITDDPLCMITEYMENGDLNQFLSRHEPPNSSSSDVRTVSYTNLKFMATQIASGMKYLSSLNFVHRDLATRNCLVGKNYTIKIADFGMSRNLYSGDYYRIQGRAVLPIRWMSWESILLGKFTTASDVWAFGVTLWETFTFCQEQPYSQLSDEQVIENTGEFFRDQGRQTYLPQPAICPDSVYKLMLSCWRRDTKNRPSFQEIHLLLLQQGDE
Sequence of UniProt P54753 (whole entry, looked up): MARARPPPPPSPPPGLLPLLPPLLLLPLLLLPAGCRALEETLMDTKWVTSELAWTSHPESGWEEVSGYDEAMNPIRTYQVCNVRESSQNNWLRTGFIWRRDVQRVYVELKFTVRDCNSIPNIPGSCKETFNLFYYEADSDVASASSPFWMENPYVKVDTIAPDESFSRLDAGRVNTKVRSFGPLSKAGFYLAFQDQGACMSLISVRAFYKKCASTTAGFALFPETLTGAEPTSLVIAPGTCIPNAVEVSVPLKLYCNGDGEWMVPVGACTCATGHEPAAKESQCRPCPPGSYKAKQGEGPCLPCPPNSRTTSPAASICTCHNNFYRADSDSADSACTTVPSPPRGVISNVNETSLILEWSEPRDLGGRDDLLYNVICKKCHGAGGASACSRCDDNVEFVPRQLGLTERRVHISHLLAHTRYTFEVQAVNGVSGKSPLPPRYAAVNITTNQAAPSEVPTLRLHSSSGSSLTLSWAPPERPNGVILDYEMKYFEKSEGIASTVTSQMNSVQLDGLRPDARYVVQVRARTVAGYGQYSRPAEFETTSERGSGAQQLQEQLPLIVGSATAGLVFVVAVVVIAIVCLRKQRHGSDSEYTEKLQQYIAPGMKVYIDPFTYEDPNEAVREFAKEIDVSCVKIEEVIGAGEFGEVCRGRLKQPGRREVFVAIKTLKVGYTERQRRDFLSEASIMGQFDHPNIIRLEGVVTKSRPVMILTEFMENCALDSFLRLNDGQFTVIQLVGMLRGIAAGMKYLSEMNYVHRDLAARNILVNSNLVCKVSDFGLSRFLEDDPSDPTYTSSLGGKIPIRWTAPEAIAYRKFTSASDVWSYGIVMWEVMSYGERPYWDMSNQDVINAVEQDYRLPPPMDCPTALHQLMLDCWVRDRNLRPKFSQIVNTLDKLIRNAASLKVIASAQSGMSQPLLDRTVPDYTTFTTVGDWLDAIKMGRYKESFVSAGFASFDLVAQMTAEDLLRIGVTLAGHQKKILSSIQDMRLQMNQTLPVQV
Sequence of UniProt P50750 (whole entry, looked up): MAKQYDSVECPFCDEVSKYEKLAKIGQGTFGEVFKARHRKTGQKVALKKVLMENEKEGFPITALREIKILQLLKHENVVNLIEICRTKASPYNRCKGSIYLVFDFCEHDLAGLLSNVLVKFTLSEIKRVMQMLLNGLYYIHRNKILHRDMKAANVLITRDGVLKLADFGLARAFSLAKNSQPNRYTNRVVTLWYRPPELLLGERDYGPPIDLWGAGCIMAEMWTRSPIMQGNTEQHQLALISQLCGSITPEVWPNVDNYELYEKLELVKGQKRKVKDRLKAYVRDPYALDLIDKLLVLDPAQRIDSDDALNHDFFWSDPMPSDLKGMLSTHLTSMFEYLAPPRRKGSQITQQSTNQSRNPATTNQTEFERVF
Sequence of UniProt P51956 (whole entry, looked up): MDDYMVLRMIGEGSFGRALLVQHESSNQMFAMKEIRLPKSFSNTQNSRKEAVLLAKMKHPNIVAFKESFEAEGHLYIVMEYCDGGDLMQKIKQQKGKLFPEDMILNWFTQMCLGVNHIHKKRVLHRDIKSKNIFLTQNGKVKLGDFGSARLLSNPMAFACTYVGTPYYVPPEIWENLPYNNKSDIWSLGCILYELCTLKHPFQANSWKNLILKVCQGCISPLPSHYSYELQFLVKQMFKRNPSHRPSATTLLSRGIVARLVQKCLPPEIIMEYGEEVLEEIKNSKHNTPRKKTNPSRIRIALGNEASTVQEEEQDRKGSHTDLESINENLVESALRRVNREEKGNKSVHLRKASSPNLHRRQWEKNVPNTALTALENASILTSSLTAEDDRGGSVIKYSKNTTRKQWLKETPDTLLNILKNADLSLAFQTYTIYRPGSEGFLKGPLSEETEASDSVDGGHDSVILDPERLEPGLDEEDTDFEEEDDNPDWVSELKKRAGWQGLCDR

Series 1 — Compound: c1ccc(N2CCN(Cc3nc4ccccc4[nH]3)CC2)nc1; method: competition with immobilised ligand; tested at: 1 µM; endpoint: remaining binding
SYK (Homo sapiens, UniProt P43405); cell-free assay: 100%
STK17B (Homo sapiens, UniProt O94768); cell-free assay: 100%
Tyrosine-protein kinase ABL1, non-phosphorylated (ABL1, Homo sapiens, UniProt P00519); binding: 80%
MAP2K1 (Homo sapiens, UniProt Q02750); binding: 100%
EPHB3 (Homo sapiens, UniProt P54753); cell-free assay: 100%

Series 2 — SMILES: COc1cc2ncc(-c3ccccc3)nc2cc1OC; observed: enzyme activity; action: inhibitor; tested at: 0.5 µM; reference: control; endpoint: remaining activity
PRKG2 (Homo sapiens, UniProt Q13237): 83.6%
MET (Homo sapiens, UniProt P08581): 92.6%
GRK4 (Homo sapiens, UniProt P32298): 97.8%
Cyclin-dependent kinase 9, with cyclin K (CDK9, Homo sapiens, UniProt P50750): 102%
MAPK14 (Homo sapiens, UniProt Q16539): 122%
CDC42BPB (Homo sapiens, UniProt Q9Y5S2): 93.3%
AKT2 (Homo sapiens, UniProt P31751): 86.7%
PAK3 (Homo sapiens, UniProt O75914): 94.7%
NEK3 (Homo sapiens, UniProt P51956): 90.5%
CLK4 (Homo sapiens, UniProt Q9HAZ1): 102%
CLK3 (Homo sapiens, UniProt P49761): 90.1%
DDR2 (Homo sapiens, UniProt Q16832): 96.9%
RPS6KA4 (Homo sapiens, UniProt O75676): 85.4%
TLK2 (Homo sapiens, UniProt Q86UE8): 96.3%
ROCK1 (Homo sapiens, UniProt Q13464): 95.5%

Series 3 — method: competitive binding panel; tested at: 1 µM; reference: vehicle; endpoint: remaining binding
Compound: COc1ccc2[nH]c3c4[nH]c5ccc(OC)cc5c4c4c(c3c2c1)C(=O)NC4=O
RIOK3 (Homo sapiens, UniProt O14730): 100%
EIF2AK4 (Homo sapiens, UniProt Q9P2K8, S808G): 74%
MAP3K19 (Homo sapiens, UniProt Q56UN5); measured: YSK4: 0%
JAK3 (Homo sapiens, UniProt P52333); JH1 catalytic domain: 47%
EPHA8 (Homo sapiens, UniProt P29322): 87%
LRRK2 (Homo sapiens, UniProt Q5S007, G2019S): 2.6%

Series 4 — cell line: HaCaT; tested at: 100 µM; time: 60 h; endpoint: viability
C[C@H](O)C(=O)Nc1c(I)c(C(=O)NC(CO)CO)c(I)c(C(=O)NC(CO)CO)c1I: 150%
COc1ccc([C@@H]2CC(=O)c3c(O)cc(O[C@@H]4O[C@H](CO[C@@H]5O[C@@H](C)[C@H](O)[C@@H](O)[C@H]5O)[C@@H](O)[C@H](O)[C@H]4O)cc3O2)cc1OC: 151%
O=C(O)CCc1nc(-c2ccccc2)c(-c2ccccc2)o1: 112%
CC(=O)N[C@H]1[C@H]([C@H](O)[C@H](O)CO)OC(C(=O)O)=C[C@@H]1N=C(N)N: 142%
NCCCC[C@H](N[C@@H](CCc1ccccc1)C(=O)O)C(=O)N1CCC[C@H]1C(=O)O: 126%
CCOCC(O)COc1ccc(NC(=O)CC[S+](C)C)cc1 (centres unmarked): 160%

Excerpt of the above (series 2):
TLK2 (Homo sapiens, UniProt Q86UE8): 96.3%
AKT2 (Homo sapiens, UniProt P31751): 86.7%
Cyclin-dependent kinase 9, with cyclin K (CDK9, Homo sapiens, UniProt P50750): 102%
